Results from different studies.
Each line is one published result; not all experiments were run side by side. Numbers after ± are the reported error.
VIPR2: Vasoactive intestinal polypeptide receptor 2 (VIPR2, Homo sapiens, UniProt P41587)
Chain of UniProt P41587 (whole entry, looked up): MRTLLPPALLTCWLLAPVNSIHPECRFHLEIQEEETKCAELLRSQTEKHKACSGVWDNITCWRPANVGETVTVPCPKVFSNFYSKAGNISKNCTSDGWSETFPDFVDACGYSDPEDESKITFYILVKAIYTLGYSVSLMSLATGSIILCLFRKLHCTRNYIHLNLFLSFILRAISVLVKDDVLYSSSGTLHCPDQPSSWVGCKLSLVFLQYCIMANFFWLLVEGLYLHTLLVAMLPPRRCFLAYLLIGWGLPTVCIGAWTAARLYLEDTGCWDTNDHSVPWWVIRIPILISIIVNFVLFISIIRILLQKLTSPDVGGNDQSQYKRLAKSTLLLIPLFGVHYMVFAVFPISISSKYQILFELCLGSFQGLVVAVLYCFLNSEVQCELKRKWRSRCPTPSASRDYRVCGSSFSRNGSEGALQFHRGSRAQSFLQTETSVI
Chain of UniProt P50406 (whole entry, looked up): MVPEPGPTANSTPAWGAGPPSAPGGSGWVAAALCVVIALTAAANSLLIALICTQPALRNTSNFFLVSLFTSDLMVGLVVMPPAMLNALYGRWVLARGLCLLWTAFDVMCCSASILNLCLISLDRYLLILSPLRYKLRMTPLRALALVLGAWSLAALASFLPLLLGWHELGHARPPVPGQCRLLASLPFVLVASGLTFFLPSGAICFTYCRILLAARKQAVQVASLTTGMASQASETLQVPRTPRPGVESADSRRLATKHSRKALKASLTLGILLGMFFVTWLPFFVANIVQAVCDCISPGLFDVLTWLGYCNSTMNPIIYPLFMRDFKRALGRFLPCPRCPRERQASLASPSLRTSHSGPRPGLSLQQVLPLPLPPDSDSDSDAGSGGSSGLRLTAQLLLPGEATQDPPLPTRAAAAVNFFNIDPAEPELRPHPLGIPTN
Chain of UniProt P08172 (whole entry, looked up): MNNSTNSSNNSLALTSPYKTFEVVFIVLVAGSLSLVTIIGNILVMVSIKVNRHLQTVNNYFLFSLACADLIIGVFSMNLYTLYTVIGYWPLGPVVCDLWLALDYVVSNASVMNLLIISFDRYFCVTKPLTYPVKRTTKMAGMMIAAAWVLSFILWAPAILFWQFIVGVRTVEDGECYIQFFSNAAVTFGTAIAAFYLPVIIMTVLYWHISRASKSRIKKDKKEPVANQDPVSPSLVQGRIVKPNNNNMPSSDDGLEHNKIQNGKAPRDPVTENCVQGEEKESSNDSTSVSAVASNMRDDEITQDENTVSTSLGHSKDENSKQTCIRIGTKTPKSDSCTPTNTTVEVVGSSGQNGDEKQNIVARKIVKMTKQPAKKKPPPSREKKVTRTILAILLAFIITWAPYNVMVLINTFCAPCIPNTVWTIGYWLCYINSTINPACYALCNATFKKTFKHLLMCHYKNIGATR
Chain of UniProt P33913 (whole entry, unmodified, looked up): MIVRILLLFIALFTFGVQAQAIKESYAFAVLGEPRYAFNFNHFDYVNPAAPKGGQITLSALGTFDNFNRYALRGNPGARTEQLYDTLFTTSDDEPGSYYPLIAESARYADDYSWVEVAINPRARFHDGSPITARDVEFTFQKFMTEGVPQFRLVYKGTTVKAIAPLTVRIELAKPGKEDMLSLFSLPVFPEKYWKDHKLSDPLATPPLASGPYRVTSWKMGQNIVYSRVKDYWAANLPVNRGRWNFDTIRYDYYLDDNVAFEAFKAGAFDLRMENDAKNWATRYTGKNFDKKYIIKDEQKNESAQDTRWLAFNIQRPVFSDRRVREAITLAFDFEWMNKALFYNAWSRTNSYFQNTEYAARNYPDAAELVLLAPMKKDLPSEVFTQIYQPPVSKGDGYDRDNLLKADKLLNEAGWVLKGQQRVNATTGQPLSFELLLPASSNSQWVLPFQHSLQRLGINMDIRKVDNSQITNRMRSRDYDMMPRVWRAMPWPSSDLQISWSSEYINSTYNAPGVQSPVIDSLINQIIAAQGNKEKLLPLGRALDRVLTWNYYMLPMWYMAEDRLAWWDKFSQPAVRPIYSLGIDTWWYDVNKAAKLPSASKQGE
Chain of UniProt Q9UKE5 (whole entry, looked up): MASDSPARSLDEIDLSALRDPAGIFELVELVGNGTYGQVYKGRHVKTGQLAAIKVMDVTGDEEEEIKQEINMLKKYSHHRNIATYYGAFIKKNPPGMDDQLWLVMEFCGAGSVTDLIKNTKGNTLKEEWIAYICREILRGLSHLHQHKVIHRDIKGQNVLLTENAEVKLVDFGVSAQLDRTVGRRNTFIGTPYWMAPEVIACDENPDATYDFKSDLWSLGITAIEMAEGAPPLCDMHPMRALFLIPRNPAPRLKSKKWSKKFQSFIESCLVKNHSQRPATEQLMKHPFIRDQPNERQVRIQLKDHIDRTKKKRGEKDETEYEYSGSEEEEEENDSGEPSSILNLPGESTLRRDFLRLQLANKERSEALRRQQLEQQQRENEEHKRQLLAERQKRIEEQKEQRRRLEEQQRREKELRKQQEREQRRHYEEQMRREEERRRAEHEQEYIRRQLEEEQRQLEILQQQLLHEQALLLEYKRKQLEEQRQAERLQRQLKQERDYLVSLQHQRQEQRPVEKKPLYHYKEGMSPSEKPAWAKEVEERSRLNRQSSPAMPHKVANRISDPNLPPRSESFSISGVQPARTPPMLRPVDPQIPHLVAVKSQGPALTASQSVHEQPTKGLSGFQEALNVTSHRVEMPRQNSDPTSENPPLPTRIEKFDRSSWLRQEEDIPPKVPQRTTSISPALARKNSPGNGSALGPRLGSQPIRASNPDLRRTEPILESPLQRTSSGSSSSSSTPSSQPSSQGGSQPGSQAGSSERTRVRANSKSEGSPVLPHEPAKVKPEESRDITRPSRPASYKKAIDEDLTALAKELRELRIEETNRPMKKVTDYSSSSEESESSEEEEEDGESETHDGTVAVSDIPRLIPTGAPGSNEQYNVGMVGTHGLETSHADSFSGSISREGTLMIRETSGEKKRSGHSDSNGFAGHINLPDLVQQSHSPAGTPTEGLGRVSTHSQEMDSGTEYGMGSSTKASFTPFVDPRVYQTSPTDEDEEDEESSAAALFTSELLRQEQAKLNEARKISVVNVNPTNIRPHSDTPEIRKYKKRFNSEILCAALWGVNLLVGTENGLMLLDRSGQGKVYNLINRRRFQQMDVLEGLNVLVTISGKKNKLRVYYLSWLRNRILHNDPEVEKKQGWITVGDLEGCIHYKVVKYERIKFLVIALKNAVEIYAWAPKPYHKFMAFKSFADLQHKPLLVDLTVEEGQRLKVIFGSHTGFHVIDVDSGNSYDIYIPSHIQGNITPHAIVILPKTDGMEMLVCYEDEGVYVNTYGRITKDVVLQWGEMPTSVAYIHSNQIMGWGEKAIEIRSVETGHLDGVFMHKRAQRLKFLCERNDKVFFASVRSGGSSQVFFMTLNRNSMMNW
Chain of UniProt Q9GZQ4 (whole entry, looked up): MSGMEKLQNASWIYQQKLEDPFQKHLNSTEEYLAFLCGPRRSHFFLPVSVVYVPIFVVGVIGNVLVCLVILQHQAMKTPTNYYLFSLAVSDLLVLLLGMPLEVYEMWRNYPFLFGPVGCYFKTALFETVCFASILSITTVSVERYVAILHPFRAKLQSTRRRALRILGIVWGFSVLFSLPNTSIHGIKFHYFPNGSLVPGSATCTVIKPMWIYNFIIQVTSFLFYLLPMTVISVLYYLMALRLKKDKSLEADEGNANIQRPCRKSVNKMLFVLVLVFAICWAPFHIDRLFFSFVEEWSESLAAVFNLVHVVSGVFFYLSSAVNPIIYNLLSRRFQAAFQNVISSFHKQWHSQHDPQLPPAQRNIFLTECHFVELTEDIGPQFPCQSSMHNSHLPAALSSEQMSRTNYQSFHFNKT
Chain of UniProt P35462 (whole entry, looked up): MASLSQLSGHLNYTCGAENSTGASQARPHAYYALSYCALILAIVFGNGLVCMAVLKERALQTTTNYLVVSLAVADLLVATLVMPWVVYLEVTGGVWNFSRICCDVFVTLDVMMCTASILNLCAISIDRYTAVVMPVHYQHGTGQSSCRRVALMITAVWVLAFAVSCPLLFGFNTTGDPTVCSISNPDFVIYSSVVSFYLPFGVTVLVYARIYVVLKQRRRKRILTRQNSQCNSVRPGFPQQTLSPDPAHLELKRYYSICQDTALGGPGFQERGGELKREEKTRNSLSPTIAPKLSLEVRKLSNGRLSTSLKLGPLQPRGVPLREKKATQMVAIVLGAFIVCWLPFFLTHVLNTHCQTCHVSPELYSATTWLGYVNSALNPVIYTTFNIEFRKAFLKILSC
Chain of UniProt P35348 (whole entry, looked up): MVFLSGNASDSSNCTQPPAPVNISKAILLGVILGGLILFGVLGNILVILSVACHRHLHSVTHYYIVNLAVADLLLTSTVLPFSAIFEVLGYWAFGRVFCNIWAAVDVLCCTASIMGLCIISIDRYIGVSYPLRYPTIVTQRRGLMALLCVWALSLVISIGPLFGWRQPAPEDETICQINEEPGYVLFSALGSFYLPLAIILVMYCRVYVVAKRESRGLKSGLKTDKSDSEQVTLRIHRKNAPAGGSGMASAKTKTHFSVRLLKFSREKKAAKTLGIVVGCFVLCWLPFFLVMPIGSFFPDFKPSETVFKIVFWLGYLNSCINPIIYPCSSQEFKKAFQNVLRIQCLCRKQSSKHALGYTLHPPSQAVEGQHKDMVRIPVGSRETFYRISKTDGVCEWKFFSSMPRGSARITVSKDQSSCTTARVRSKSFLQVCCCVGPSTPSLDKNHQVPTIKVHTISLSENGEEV

SMILES	target or system	assay	system	conditions	quantity	value
CSCC[C@H](NC(=O)[C@H](CCC(N)=O)NC(=O)[C@H](CCCCN)NC(=O)[C@H](CCCNC(=N)N)NC(=O)[C@H](Cc1ccc(O)cc1)NC(=O)[C@H](CCCNC(=N)N)NC(=O)[C@H](CO)NC(=O)[C@H](Cc1ccc(O)cc1)NC(=O)[C@H](CO)NC(=O)[C@H](CC(=O)O)NC(=O)[C@@H](NC(=O)[C@@H](N)Cc1ccccc1)[C@@H](C)O)C(=O)N[C@@H](C)C(=O)N[C@H](C(=O)N[C@@H](CCCCN)C(=O)N[C@@H](CCCCn1cc(C[C@H](NC(=O)CNC(=O)[C@H](CO)NC(=O)[C@H](CCCNC(=N)N)NC(=O)[C@H](CO)NC(=O)[C@H](CC(C)C)NC(=O)[C@H](CC(C)C)NC(=O)CNC(=O)[C@H](C)NC(=O)[C@H](CC(C)C)NC(=O)[C@H](CCCNC(=N)N)NC(=O)[C@H](Cc2c[nH]cn2)NC(=O)[C@@H](NC(=O)[C@@H](N)C(C)C)[C@@H](C)O)C(=O)N[C@H](C(=O)N[C@H](C(=O)N[C@@H](CCCCN)C(=O)N[C@@H](CC(N)=O)C(=O)N[C@@H](CC(N)=O)C(=O)N[C@@H](Cc2ccccc2)C(=O)N[C@H](C(=O)N2CCC[C@H]2C(=O)N[C@H](C(=O)N[C@@H](CC(N)=O)C(=O)N[C@H](C(=O)NCC(=O)N[C@@H](CO)C(=O)N[C@@H](CCCCN)C(=O)N[C@@H](C)C(=O)N[C@@H](Cc2ccccc2)C(N)=O)C(C)C)[C@@H](C)O)C(C)C)C(C)C)C(C)C)nn1)C(=O)N[C@@H](Cc1ccc(O)cc1)C(=O)N[C@@H](CC(C)C)C(=O)N[C@@H](C)C(=O)N[C@@H](C)C(=O)N[C@H](C(=O)N[C@@H](CC(C)C)C(=O)NCC(=O)N[C@@H](CCCCN)C(=O)N[C@@H](CCCNC(=N)N)C(=O)N[C@@H](Cc1ccc(O)cc1)C(=O)N[C@@H](CCCCN)C(=O)N[C@@H](CCC(N)=O)C(=O)N[C@@H](CCCNC(=N)N)C(=O)N[C@H](C(=O)N[C@@H](CCCCN)C(=O)N[C@@H](CC(N)=O)C(=O)N[C@@H](CCCCN)C(N)=O)C(C)C)C(C)C)C(C)C	VIPR2	cAMP, antagonist			Kb	> 10000 nM
O=C1NC2(CC2)COc2ncc(F)cc2[C@H]2COCCN2c2ccn3ncc1c3n2			Sprague-Dawley rat, female, kidneys	oral, 5 mg/kg/day, 4 weeks	organ weight	2.18 ± 0.167 g
CCCCCCCCCCCCCCCCCC(=O)NC[C@H]1CC[C@H](C(=O)N[C@@H](CCC(=O)NCCCOCCOCCOCCCNC(=O)COCC(=O)N[C@@H](Cc2ccc(O)cc2)C(=O)NC(C)(Cc2ccccc2)C(=O)N[C@@H](CC(C)C)C(=O)N[C@@H](CCCC)C(=O)N[C@@H](CCCNC(=N)N)C(=O)N2CCC[C@H]2C(=O)N[C@@H](CCCNC(=N)NC)C(=O)N[C@@H](CC(N)=O)C(N)=O)C(=O)O)CC1 (some centres unmarked)	NMUR2 (Homo sapiens, UniProt Q9GZQ4)	β-arrestin recruitment, agonist			EC50	6.92 nM
CSCC[C@H](NC=O)C(=O)N[C@@H](CCCNC(=N)N)C(=O)N[C@H](C(=O)NCC(=O)N[C@@H](CC(N)=O)C(=O)N[C@@H](C)C(=O)N[C@@H](CC(N)=O)C(=O)NCC(=O)NCC(=O)N[C@@H](CCCCNC(=S)Nc1ccc2c(c1)C(=O)OC21c2ccc(O)cc2Oc2cc(O)ccc21)C(=O)O)[C@@H](C)O	Uncharacterized protein YejA (yejA, Escherichia coli, UniProt P33913, Y509F)	binding, fluorescence polarisation		YejA variant Y491F	Kd	11300 ± 360 nM
C=C1NC(=O)CNC(=O)[C@H](Cc2ccccc2)NC(=O)[C@H](Cc2ccc(O)cc2)NC(=O)CNC(=O)[C@H](CCCCN)NC(=O)[C@H](CC(=O)O)NC(=O)[C@H](Cc2c[nH]c3ccccc23)NC(=O)CNC(=O)[C@H](Cc2c[nH]cn2)NC(=O)[C@H](Cc2c[nH]c3ccccc23)NC(=O)[C@H](Cc2c[nH]c3ccccc23)NC(=O)c2ccc(-c3nc(C(=O)OC)cs3)nc2-c2csc1n2	TNIK (Homo sapiens, UniProt Q9UKE5)	binding, SPR			Kd	23 nM
CSCC[C@H](NC(=O)[C@H](CCC(N)=O)NC(=O)[C@H](CCCCN)NC(=O)[C@H](CCCNC(=N)N)NC(=O)[C@H](Cc1ccc(O)cc1)NC(=O)[C@H](CCCNC(=N)N)NC(=O)[C@H](CO)NC(=O)[C@H](Cc1ccc(O)cc1)NC(=O)[C@H](CO)NC(=O)[C@H](CC(=O)O)NC(=O)[C@@H](NC(=O)[C@@H](N)Cc1ccccc1)[C@@H](C)O)C(=O)N[C@@H](C)C(=O)N[C@H](C(=O)N[C@@H](CCCCN)C(=O)N[C@@H](CCCCN)C(=O)N[C@@H](Cc1ccc(O)cc1)C(=O)N[C@@H](CC(C)C)C(=O)N[C@@H](C)C(=O)N[C@@H](C)C(=O)N[C@H](C(=O)N[C@@H](CC(C)C)C(=O)NCC(=O)N[C@@H](CCCCN)C(=O)N[C@@H](CCCNC(=N)N)C(=O)N[C@@H](Cc1ccc(O)cc1)C(=O)N[C@@H](CCCCN)C(=O)N[C@@H](CCC(N)=O)C(=O)N[C@@H](CCCCn1cc(C[C@H](NC(=O)CNC(=O)[C@H](CO)NC(=O)[C@H](CCCNC(=N)N)NC(=O)[C@H](CO)NC(=O)[C@H](CC(C)C)NC(=O)[C@H](CC(C)C)NC(=O)CNC(=O)[C@H](C)NC(=O)[C@H](CC(C)C)NC(=O)[C@H](CCCNC(=N)N)NC(=O)[C@H](Cc2c[nH]cn2)NC(=O)[C@@H](NC(=O)[C@@H](N)C(C)C)[C@@H](C)O)C(=O)N[C@H](C(=O)N[C@H](C(=O)N[C@@H](CCCCN)C(=O)N[C@@H](CC(N)=O)C(=O)N[C@@H](CC(N)=O)C(=O)N[C@@H](Cc2ccccc2)C(=O)N[C@H](C(=O)N2CCC[C@H]2C(=O)N[C@H](C(=O)N[C@@H](CC(N)=O)C(=O)N[C@H](C(=O)NCC(=O)N[C@@H](CO)C(=O)N[C@@H](CCCCN)C(=O)N[C@@H](C)C(=O)N[C@@H](Cc2ccccc2)C(N)=O)C(C)C)[C@@H](C)O)C(C)C)C(C)C)C(C)C)nn1)C(=O)N[C@H](C(=O)N[C@@H](CCCCN)C(=O)N[C@@H](CC(N)=O)C(=O)N[C@@H](CCCCN)C(N)=O)C(C)C)C(C)C)C(C)C	VIPR2	cAMP accumulation, antagonist		added: PACAP-27	Kb	631 nM
O=C(O)CCn1c(=O)oc2cc(Cl)c(Cl)cc21	CHRM2 (Homo sapiens, UniProt P08172)	antagonist		median value	IC50	> 50100 nM
CN(C)[C@H](CNC(=O)/C=C/c1cccc2ccccc12)Cc1ccc(O)cc1	HTR6 (Homo sapiens, UniProt P50406)				Ki	8800 ± 3200 nM
CSCC[C@H](NC(=O)[C@H](CCC(N)=O)NC(=O)[C@H](CCCCN)NC(=O)[C@H](CCCNC(=N)N)NC(=O)[C@H](Cc1ccc(O)cc1)NC(=O)[C@H](CCCNC(=N)N)NC(=O)[C@H](CO)NC(=O)[C@H](Cc1ccc(O)cc1)NC(=O)[C@H](CO)NC(=O)[C@H](CC(=O)O)NC(=O)[C@@H](NC(=O)[C@@H](N)Cc1ccccc1)[C@@H](C)O)C(=O)N[C@@H](C)C(=O)N[C@H](C(=O)N[C@@H](CCCCN)C(=O)N[C@@H](CCCCN)C(=O)N[C@@H](Cc1ccc(O)cc1)C(=O)N[C@@H](CC(C)C)C(=O)N[C@@H](C)C(=O)N[C@@H](C)C(=O)N[C@H](C(=O)N[C@@H](CC(C)C)C(=O)NCC(=O)N[C@@H](CCCCN)C(=O)N[C@@H](CCCNC(=N)N)C(=O)N[C@@H](Cc1ccc(O)cc1)C(=O)N[C@@H](CCCCN)C(=O)N[C@@H](CCC(N)=O)C(=O)N[C@@H](CCCNC(=N)N)C(=O)N[C@H](C(=O)N[C@@H](CCCCN)C(=O)N[C@@H](CC(N)=O)C(=O)N[C@@H](CCCCn1cc(C[C@H](NC(=O)CNC(=O)[C@H](CO)NC(=O)[C@H](CCCNC(=N)N)NC(=O)[C@H](CO)NC(=O)[C@H](CC(C)C)NC(=O)[C@H](CC(C)C)NC(=O)CNC(=O)[C@H](C)NC(=O)[C@H](CC(C)C)NC(=O)[C@H](CCCNC(=N)N)NC(=O)[C@H](Cc2c[nH]cn2)NC(=O)[C@@H](NC(=O)[C@@H](N)C(C)C)[C@@H](C)O)C(=O)N[C@H](C(=O)N[C@H](C(=O)N[C@@H](CCCCN)C(=O)N[C@@H](CC(N)=O)C(=O)N[C@@H](CC(N)=O)C(=O)N[C@@H](Cc2ccccc2)C(=O)N[C@H](C(=O)N2CCC[C@H]2C(=O)N[C@H](C(=O)N[C@@H](CC(N)=O)C(=O)N[C@H](C(=O)NCC(=O)N[C@@H](CO)C(=O)N[C@@H](CCCCN)C(=O)N[C@@H](C)C(=O)N[C@@H](Cc2ccccc2)C(N)=O)C(C)C)[C@@H](C)O)C(C)C)C(C)C)C(C)C)nn1)C(N)=O)C(C)C)C(C)C)C(C)C	VIPR2	cAMP accumulation, antagonist	COS-7 transfected	from pA2, single concentration, added: PACAP-38	Kb	2090 nM
C[C@@H](Cc1ccsc1)NC(=O)NC[C@H](Cc1ccc(O)cc1)N(C)C	DRD3 (Homo sapiens, UniProt P35462)	cell-free assay			Ki	> 50000 nM
O=C1c2ccccc2CCCN1CCCCN1CCN(c2cccc(Cl)c2Cl)CC1	ADRA1A (Homo sapiens, UniProt P35348)	ligand displacement, radioligand			Ki	217 nM

A few entries again:
SMILES	target or system	assay	system	conditions	quantity	value
CCCCCCCCCCCCCCCCCC(=O)NC[C@H]1CC[C@H](C(=O)N[C@@H](CCC(=O)NCCCOCCOCCOCCCNC(=O)COCC(=O)N[C@@H](Cc2ccc(O)cc2)C(=O)NC(C)(Cc2ccccc2)C(=O)N[C@@H](CC(C)C)C(=O)N[C@@H](CCCC)C(=O)N[C@@H](CCCNC(=N)N)C(=O)N2CCC[C@H]2C(=O)N[C@@H](CCCNC(=N)NC)C(=O)N[C@@H](CC(N)=O)C(N)=O)C(=O)O)CC1 (some centres unmarked)	NMUR2 (Homo sapiens, UniProt Q9GZQ4)	β-arrestin recruitment, agonist			EC50	6.92 nM
